Measured values of several laboratories.
Each line is one published result; not all experiments were run side by side. Numbers after ± are the reported error.

| SMILES | assay | test system | conditions | scale | measurement | value |
| --- | --- | --- | --- | --- | --- | --- |
| CCCC[C@H](NC(=O)CCCCCCCNC(=O)CN1CCN(CC(=O)O)CCN(CC(=O)O)CC1)C(=O)N[C@H]1CC(=O)NCCCC[C@@H](C(N)=O)NC(=O)[C@H](Cc2c[nH]c3ccccc23)NC(=O)[C@H](CCCNC(=N)N)NC(=O)[C@@H](Cc2ccccc2)NC(=O)[C@H](Cc2c[nH]cn2)NC1=O [copper-64 labelled] | – | C57 mice, kidney | intravenous, 0.37 MBq, 24 h | – | tissue uptake | 0.83 ± 0.11 %ID/g |
| COC(=O)[C@H](CSSC(C)(C)[C@H](NC(=O)[C@H](CCC(=O)NC[C@H](O)[C@@H](O)[C@H](O)[C@H](O)CO)NC(=O)[C@H](CCC(=O)O)NC(=O)[C@H](CCC(=O)NC[C@H](O)[C@@H](O)[C@H](O)[C@H](O)CO)NC(=O)[C@H](CCC(=O)O)NC(=O)[C@H](CCC(=O)NC[C@H](O)[C@@H](O)[C@H](O)[C@H](O)CO)NC(=O)CC[C@H](NC(=O)c1ccc(NCc2cnc3nc(N)[nH]c(=O)c3n2)cc1)C(=O)O)C(=O)O)NC(=O)CC[C@H](NC(=O)c1ccc(NCc2cnc3nc(N)[nH]c(=N)c3n2)cc1)C(=O)O | – | beagle dog, male, plasma | intravenous or subcutaneous | – | terminal half-life | 60.6 to 72.6 min |
| CCCC[C@H](NC(=O)COCCOCCNC(=O)CN1CCN(CC(=O)O)CCN(CC(=O)O)CC1)C(=O)N[C@H]1CC(=O)NCCCC[C@@H](C(N)=O)NC(=O)[C@H](Cc2c[nH]c3ccccc23)NC(=O)[C@H](CCCNC(=N)N)NC(=O)[C@@H](Cc2ccccc2)NC(=O)[C@H](Cc2c[nH]cn2)NC1=O [copper-64 labelled] | – | C57 mice, tumor | intravenous, 0.37 MBq, 4 h | – | tissue uptake | 12.8 ± 1.69 %ID/g |
| CC(=O)N[C@@H](CO)C(=O)NCC(=O)N[C@@H](CCC(N)=O)C(=O)N[C@H](C(=O)N1CCC[C@H]1C(=O)N[C@@H](Cc1c[nH]c2ccccc12)C(=O)N[C@@H](CCC(=O)O)C(=O)N[C@@H](CCC(=O)O)C(=O)N1CCC[C@H]1C(=O)N[C@@H](Cc1ccc(O)cc1)C(=O)N[C@@H](Cc1ccc(O)cc1)C(=O)N[C@H](C(=O)N[C@H](C(=O)N[C@@H](CCCCN)C(=O)N[C@@H](CCCCN)C(=O)N[C@@H](CO)C(=O)N[C@@H](CO)C(=O)NCC(=O)NCC(=O)N[C@@H](CSC1CC(=O)N(c2ccc3c(c2)C(=O)OC32c3ccc(O)cc3Oc3cc(O)ccc32)C1=O)C(N)=O)C(C)C)C(C)C)C(C)C (stereo partly shown) | – | SKH1 male mice, blood | intravenous, 100 nmol (about 11 mg/kg) | – | blood half-life | 30 min |
| N=C(N)NCCC[C@@H]1NC(=O)[C@H](CCCCNC(=O)CC[C@H](NC(=O)CC[C@H](NC(=O)CN2CCN(CC(=O)O)CCN(CC(=O)O)CCN(CC(=O)O)CC2)C(=O)N[C@@H](CCC(=O)NCCCC[C@@H]2NC(=O)[C@@H](Cc3ccccc3)NC(=O)[C@H](CC(=O)O)NC(=O)CNC(=O)[C@H](CCCNC(=N)N)NC2=O)C(=O)NCCCC[C@@H]2NC(=O)[C@@H](Cc3ccccc3)NC(=O)[C@H](CC(=O)O)NC(=O)CNC(=O)[C@H](CCCNC(=N)N)NC2=O)C(=O)NCCCC[C@@H]2NC(=O)[C@@H](Cc3ccccc3)NC(=O)[C@H](CC(=O)O)NC(=O)CNC(=O)[C@H](CCCNC(=N)N)NC2=O)NC(=O)[C@@H](Cc2ccccc2)NC(=O)[C@H](CC(=O)O)NC(=O)CNC1=O [indium-111 labelled] | – | female athymic nu/nu mice, heart | intravenous, 0.5 h | – | tissue uptake | 1.45 ± 0.53 %ID/g |
| C[N+]1=C(C=CC=CC=C2N(CCCCCC(=O)NCCCC[C@H](NC(=O)[C@@H](CCC(=O)O)NC(=O)[C@@H](CCC(=O)O)NC(=O)[C@@H](CCC(=O)O)NC(=O)CCCCCNC(=O)C3CCC(CNC(=O)CC[C@H](NC(=O)N[C@@H](CCC(=O)O)C(=O)O)C(=O)O)CC3)C(N)=O)c3ccc4ccccc4c3C2(C)C)C(C)(C)c2c1ccc1ccccc21 (stereo partly shown) | reversed-phase HPLC, C18 | – | 5-55% acetonitrile over 30 min | – | HPLC retention time | 39.4 min |
| CC(=O)N[C@H](C(=O)N[C@H](C(=O)N[C@H](C(=O)N[C@H](C(=O)N[C@H](C(=O)N[C@@H](Cc1c[nH]cn1)C(=O)N[C@@H](Cc1c[nH]cn1)C(=O)N[C@@H](CCCNC(=N)N)C(=O)NCC(=O)N[C@@H](CC(=O)O)C(=O)N[C@@H](CSC1CC(=O)N(CC(=O)N[C@@H](C(=O)N[C@H](C)C(=O)N[C@H](Cc2c[nH]c3ccccc23)C(=O)N[C@H](Cc2ccc(O)cc2)C(=O)N[C@H](C)C(=O)N[C@H](CC(N)=O)C(=O)N[C@H](Cc2ccccc2)C(=O)N[C@H](CCC(=O)O)C(=O)N[C@H](C)C(=O)N[C@H](CC(C)C)C(=O)N[C@H](CC(C)C)C(=O)N[C@H](CCCNC(=N)N)C(N)=O)[C@H](C)O)C1=O)C(=O)O)C(C)C)C(C)C)C(C)C)C(C)C)C(C)C (stereo partly shown) | – | mouse, tumour-bearing | dose not given | relative to: healthy mice | liver weight | no effect |
| CCCC[C@H](NC(=O)CNC(=O)CNC(=O)CN1CCN(CC(=O)O)CCN(CC(=O)O)CCN(CC(=O)O)CC1)C(=O)N[C@H]1CC(=O)NCCCC[C@@H](C(N)=O)NC(=O)[C@H](Cc2c[nH]c3ccccc23)NC(=O)[C@H](CCCNC(=N)N)NC(=O)[C@@H](Cc2ccccc2)NC(=O)[C@H](Cc2c[nH]cn2)NC1=O [lutetium-177 labelled] | – | C57 mouse, female, liver | intravenous, 0.037 MBq, 4 h | – | tissue uptake | 0.78 ± 0.08 %ID/g |
| CC[C@@]1(OC(=O)OCCSSC[C@H](NC(C)=O)C(=O)NCCCC[C@H](NC(=O)[C@H](CSSCCOC(=O)O[C@]2(CC)C(=O)OCc3c2cc2n(c3=O)Cc3cc4ccccc4nc3-2)NC(C)=O)C(=O)NCC(=O)N[C@@H](CC(N)=O)C(=O)N[C@@H](CC(N)=O)C(=O)N[C@@H](CCC(N)=O)C(=O)N[C@@H](CCC(N)=O)C(=O)N[C@@H](CC(N)=O)C(=O)N[C@@H](Cc2ccc(O)cc2)C(=O)N[C@@H](CCCCN)C(=O)N[C@@H](CCCCN)C(N)=O)C(=O)OCc2c1cc1n(c2=O)Cc2cc3ccccc3nc2-1 | TEM | water | 100 µM | – | nanostructure width | 6.9 ± 1.4 nm |
| N=C(N)NCCC[C@@H]1NC(=O)[C@H](CCCCNC(=O)CNC(=O)CNC(=O)CNC(=O)CC[C@H](NC(=O)CNC(=O)CNC(=O)CNC(=O)CN2CCN(CC(=O)O)CCN(CC(=O)O)CCN(CC(=O)O)CC2)C(=O)NCC(=O)NCC(=O)NCC(=O)NCCCC[C@@H]2NC(=O)[C@@H](Cc3ccccc3)NC(=O)[C@H](CC(=O)O)NC(=O)CNC(=O)[C@H](CCCNC(=N)N)NC2=O)NC(=O)[C@@H](Cc2ccccc2)NC(=O)[C@H](CC(=O)O)NC(=O)CNC1=O [indium-111 labelled] | – | female athymic nu/nu mice, blood | intravenous, 1 h | – | tissue uptake | 0.3 ± 0.07 %ID/g |
